{"data": "Measured values collected from several papers", "UCHL1": "Ubiquitin carboxyl-terminal hydrolase isozyme L1 (UCHL1, Homo sapiens, UniProt P09936)", "note": "Compare with care: the assays were run in different laboratories.", "UniProt P09936, sequence (whole entry, looked up)": "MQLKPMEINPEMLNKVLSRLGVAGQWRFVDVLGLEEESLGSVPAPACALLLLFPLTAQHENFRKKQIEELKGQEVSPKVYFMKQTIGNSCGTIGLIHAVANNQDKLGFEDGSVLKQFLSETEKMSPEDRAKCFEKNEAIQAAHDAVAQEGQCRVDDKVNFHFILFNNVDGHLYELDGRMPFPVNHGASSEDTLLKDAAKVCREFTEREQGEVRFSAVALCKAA"}
{"SMILES": "C[C@@H](Nc1cc(F)cc(F)c1)c1cc(C(=O)N(C)C)cc2c(=O)cc(N3CCOCC3)oc12", "assay": "CTCAE v4, item: muscular weakness", "system": "patients with advanced solid tumours", "conditions": "oral, dose not given, phase I dose finding", "measurement": "patients with related SAE", "value": "1.6%"}
{"SMILES": "COc1cc(Nc2ncc3c(n2)-c2ccc(Cl)cc2C(c2c(F)cccc2OC)=NC3)ccc1C(=O)O", "assay": "item: Hypotension, all grades", "system": "cancer patients, phase 1/2", "conditions": "oral, dose not given, together with: pembrolizumab", "measurement": "patients with adverse event", "value": "4%"}
{"SMILES": "Cc1cc(-c2nnc(N)nc2-c2ccc(F)cc2)cc(Cl)n1", "assay": "item: hypothyroidism", "system": "post-IO other solid tumour patients", "conditions": "oral, 100 mg once daily, treatment-related, grade 2", "measurement": "patients with immune-mediated AE", "value": "4.8%"}
{"SMILES": "C=CC(=O)Nc1cc(Nc2nccc(-c3cn(C)c4ccccc34)n2)c(OC)cc1N(C)CCN(C)C", "assay": "item: Fatigue grade ≥3", "system": "EGFR-mutant MET-altered NSCLC", "conditions": "oral, dose not given, study", "measurement": "patients with treatment-related AEs", "value": "0%"}
{"SMILES": "O=C(Nc1nc2cccc(-c3ccc(CN4CCS(=O)(=O)CC4)cc3)n2n1)C1CC1", "system": "rheumatoid arthritis patients", "conditions": "oral, 100 mg twice daily, 4 weeks, regardless of relatedness", "measurement": "patients with blood disorders", "value": "0%"}
{"SMILES": "CNC(=O)c1ccc(-c2cnc3ncc(Cc4ccc5ncccc5c4)n3n2)cc1F", "assay": "item: Dizziness", "system": "other cancer patients", "conditions": "oral, 600 mg twice daily, expansion cohort, grade 3-4", "measurement": "patients with adverse event", "value": "0%"}
{"SMILES": "CCOc1c([C@H](C)n2nc(C)c3c(N)ncnc32)cc(Cl)c(F)c1[C@@H]1CNC(=O)C1", "assay": "item: QRS >100 to ≤110 ms", "system": "previously treated B-cell malignancy", "conditions": "oral, 5 mg once daily, baseline below thresholds", "measurement": "patients", "value": "0%"}
{"SMILES": "CCOC(=O)C(C#N)=Cc1cccc([N+](=O)[O-])c1", "target or system": "UCHL1", "assay": "covalent, intact protein LC-MS", "conditions": "12.5 µM", "measurement": "labelling", "value": "15.6%"}
{"SMILES": "FC(F)(F)c1ccc(CNc2ccc(Cc3c[nH]c4ncc(Cl)cc34)cn2)cn1", "assay": "item: hair colour changes", "system": "non-TGCT solid tumour patients", "conditions": "oral, 1000 mg/day, all grades", "measurement": "patients with treatment-related adverse event", "value": "31%"}
{"SMILES": "C=CC(=O)NC1CCN(c2ncc3ncnc(Nc4ccc(Oc5ccc6c(c5)ncn6C)c(C)c4)c3n2)CC1", "system": "male patients", "conditions": "oral, dose not given, treatment-related adverse events", "measurement": "patients with Pruritus", "value": "0%"}
{"SMILES": "Cn1ccnc1Sc1ccc(C=C(C#N)C(N)=O)cc1[N+](=O)[O-]", "target or system": "UCHL1", "assay": "covalent, intact protein LC-MS", "conditions": "12.5 µM", "measurement": "labelling", "value": "10.8%"}
{"SMILES": "Cc1cc(NC2CCN(C(=O)OC3CCN(C(=O)/C=C/CN(C)C)C3)CC2)n2ncc(C(C)C)c2n1 (stereo not drawn)", "assay": "Phase I dose escalation CTCAE v4.0, item: dermatitis acneiform", "system": "patients with advanced solid tumours", "conditions": "dose not given, Total dosing grade 3 or higher", "measurement": "patients with adverse event", "value": "0%"}
